Published values of several laboratories.
UCHL1: Ubiquitin carboxyl-terminal hydrolase isozyme L1 (UCHL1, Homo sapiens, UniProt P09936)
Chain of UniProt P09936 (whole entry, looked up): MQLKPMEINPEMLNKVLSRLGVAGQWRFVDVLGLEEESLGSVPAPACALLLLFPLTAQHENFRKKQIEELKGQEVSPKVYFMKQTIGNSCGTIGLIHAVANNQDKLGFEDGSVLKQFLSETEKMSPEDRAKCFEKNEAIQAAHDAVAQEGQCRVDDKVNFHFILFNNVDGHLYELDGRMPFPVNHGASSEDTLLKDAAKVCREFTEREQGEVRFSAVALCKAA
T1: RNA aptamer; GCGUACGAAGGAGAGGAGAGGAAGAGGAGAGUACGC
T2: RNA aptamer, 5'-triphosphate; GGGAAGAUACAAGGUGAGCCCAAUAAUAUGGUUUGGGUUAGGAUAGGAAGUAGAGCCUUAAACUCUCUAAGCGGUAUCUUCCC
T3: RNA aptamer; chain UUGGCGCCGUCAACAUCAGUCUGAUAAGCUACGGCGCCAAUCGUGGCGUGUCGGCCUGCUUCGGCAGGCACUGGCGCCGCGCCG; chain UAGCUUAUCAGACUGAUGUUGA
T4: RNA aptamer; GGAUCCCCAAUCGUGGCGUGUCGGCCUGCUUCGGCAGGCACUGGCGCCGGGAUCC
T5: RNA aptamer, 2'-5' linkage G15-U16; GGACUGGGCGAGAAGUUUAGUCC
T6: RNA aptamer; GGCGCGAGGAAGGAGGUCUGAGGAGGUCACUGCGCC
T7: RNA aptamer; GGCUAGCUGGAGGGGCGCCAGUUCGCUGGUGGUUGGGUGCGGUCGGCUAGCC
T8: RNA aptamer del22-39, UUCG tetraloop closing ends; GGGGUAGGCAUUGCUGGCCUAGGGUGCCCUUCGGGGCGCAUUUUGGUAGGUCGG
T9: RNA aptamer; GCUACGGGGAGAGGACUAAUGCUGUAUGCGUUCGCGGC
T10: RNA aptamer; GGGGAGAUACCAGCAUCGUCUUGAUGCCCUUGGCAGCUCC
T11: RNA aptamer, 9-nt flexible stem loop; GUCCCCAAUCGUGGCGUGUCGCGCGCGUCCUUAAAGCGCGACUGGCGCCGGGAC

Under binding, `C[n+]1cc(NC(=O)c2ccc3ccc4ccc(C(=O)Nc5cc6ccccc6[n+](C)c5)nc4c3n2)cc2ccccc21` is recorded as “binds” (T1, RNA aptamer; competitor, competition fluorescence).
`CC1=N/C(=C\c2cc(F)c(O)c(F)c2)C(=O)N1CC(F)(F)F` — result for binding: “binds” (T2, RNA aptamer, 5'-triphosphate; X-ray crystallography).
`CN(CCO)c1cc2sc(/C=C(\C#N)c3ccc(C#N)cc3)cc2s1` — result for binding: “binds” (T3, RNA aptamer; fluorescence activation, native PAGE).
For `CN(CCO)c1cc2sc(/C=C(\C#N)c3ccc(C#N)cc3)cc2s1`, binding read “binds” (T4, RNA aptamer; fluorescence turn-on; MgCl2 5 mM, KCl 100 mM).
`NC[C@@H]1O[C@H](O[C@H]2[C@@H](O)[C@H](O[C@@H]3[C@@H](O)[C@H](N)C[C@H](N)[C@H]3O[C@H]3O[C@H](CN)[C@@H](O)[C@H](O)[C@H]3N)O[C@@H]2CO)[C@H](N)[C@@H](O)[C@@H]1O`: binding “no binding” (T5, RNA aptamer, 2'-5' linkage G15-U16; ITC).
`CN1C(=O)/C(=C/c2cc(F)c(O)c(F)c2)N=C1/C=N/O`: binding “binds” (T6, RNA aptamer; fluorescence turn-on; MgCl2 5 mM, KCl 100 mM).
With `NC(=O)CCc1ccc(C(=O)CCl)cc1` the labelling was 12.6% (UCHL1; covalent, intact protein LC-MS; 12.5 µM).
For `COc1cc(/C=C2\N=C(C)N(c3ccc([N+](C)(C)C)cc3)C2=O)cc(OC)c1O`, binding read “binds” (T7, RNA aptamer; fluorescence turn-on; MgCl2 5 mM, KCl 100 mM).
For `Nc1nc2c(ncn2[C@@H]2O[C@H](COP(=O)(O)OP(=O)(O)OP(=O)(O)O)[C@@H](O)[C@H]2O)c(=O)[nH]1`, binding read “no binding” (T8, RNA aptamer del22-39, UUCG tetraloop closing ends; imino proton NMR titration).
`CN1C=CC(=Cc2sc3ccccc3[n+]2CC(=O)NCCOCCOCCOCCNC(=O)CCCC[C@@H]2SC[C@@H]3NC(=O)N[C@@H]32)c2ccccc21`: binding “binds” (T9, RNA aptamer; fluorescence light-up; 10 µM dye).
Under binding, `Cn1c(=O)c2c(ncn2C)n(C)c1=O` is recorded as “no binding” (T10, RNA aptamer; ITC; 25 °C, MgCl2 mM).
Under binding, `Nc1ncnc2[nH]cnc12` is recorded as “no binding” (T2, RNA aptamer, 5'-triphosphate; fluorescence competition).
For `CN(CCO)c1cc2sc(/C=C(\C#N)c3ccc(C#N)cc3)cc2s1`, binding read “binds weakly” (T11, RNA aptamer, 9-nt flexible stem loop; fluorescence turn-on).
For `O=C(CCl)Nc1nc2ccc([N+](=O)[O-])cc2s1`, the labelling was 64.7% (UCHL1; covalent, intact protein LC-MS; 12.5 µM).

Excerpt of the above:
For `COc1cc(/C=C2\N=C(C)N(c3ccc([N+](C)(C)C)cc3)C2=O)cc(OC)c1O`, binding read “binds” (T7, RNA aptamer; fluorescence turn-on; MgCl2 5 mM, KCl 100 mM).
